Measured values gathered from unrelated publications.
Each numbered part is a random draw from the data of one study; scales do not carry over between parts.
Sequence of UniProt P54753 (whole entry, looked up): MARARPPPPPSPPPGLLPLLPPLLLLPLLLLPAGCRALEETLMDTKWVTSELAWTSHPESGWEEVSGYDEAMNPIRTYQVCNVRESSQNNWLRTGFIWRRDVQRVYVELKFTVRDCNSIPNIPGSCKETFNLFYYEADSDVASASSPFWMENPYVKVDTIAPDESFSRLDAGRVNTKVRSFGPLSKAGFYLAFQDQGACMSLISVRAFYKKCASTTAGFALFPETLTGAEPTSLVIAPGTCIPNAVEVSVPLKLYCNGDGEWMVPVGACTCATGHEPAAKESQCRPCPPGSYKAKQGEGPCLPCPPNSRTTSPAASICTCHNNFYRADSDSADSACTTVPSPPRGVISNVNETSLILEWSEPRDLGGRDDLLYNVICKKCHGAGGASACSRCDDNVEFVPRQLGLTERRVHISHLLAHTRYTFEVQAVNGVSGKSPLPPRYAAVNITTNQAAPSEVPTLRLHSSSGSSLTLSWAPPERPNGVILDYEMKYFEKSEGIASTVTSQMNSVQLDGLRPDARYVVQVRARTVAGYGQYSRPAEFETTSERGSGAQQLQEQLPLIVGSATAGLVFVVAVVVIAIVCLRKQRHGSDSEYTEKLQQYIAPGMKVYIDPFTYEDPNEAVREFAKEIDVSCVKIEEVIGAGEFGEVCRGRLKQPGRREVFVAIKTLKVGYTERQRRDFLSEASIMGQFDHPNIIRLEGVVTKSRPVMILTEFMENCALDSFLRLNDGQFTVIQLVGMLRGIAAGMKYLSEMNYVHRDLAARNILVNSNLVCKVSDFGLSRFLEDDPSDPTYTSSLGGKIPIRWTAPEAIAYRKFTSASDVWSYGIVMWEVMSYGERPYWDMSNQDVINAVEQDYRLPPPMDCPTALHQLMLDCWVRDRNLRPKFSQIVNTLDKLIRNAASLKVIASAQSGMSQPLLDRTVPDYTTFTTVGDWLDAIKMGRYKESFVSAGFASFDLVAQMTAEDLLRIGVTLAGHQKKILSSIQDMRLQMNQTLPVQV
Sequence of UniProt P49760 (whole entry, looked up): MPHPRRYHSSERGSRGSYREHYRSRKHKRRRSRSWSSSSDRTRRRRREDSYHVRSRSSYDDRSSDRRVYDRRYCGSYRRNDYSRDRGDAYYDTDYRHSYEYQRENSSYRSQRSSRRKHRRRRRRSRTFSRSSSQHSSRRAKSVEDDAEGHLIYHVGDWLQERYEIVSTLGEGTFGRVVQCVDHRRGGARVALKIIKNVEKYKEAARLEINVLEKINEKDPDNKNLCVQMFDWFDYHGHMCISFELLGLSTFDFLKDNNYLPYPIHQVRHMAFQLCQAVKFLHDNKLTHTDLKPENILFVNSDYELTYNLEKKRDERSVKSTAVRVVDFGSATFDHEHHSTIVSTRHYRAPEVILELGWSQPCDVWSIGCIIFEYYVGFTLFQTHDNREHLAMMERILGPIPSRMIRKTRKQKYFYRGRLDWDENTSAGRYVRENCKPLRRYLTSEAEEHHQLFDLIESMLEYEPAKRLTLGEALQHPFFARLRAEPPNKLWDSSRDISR
Sequence of UniProt Q9Y4K4 (whole entry, looked up): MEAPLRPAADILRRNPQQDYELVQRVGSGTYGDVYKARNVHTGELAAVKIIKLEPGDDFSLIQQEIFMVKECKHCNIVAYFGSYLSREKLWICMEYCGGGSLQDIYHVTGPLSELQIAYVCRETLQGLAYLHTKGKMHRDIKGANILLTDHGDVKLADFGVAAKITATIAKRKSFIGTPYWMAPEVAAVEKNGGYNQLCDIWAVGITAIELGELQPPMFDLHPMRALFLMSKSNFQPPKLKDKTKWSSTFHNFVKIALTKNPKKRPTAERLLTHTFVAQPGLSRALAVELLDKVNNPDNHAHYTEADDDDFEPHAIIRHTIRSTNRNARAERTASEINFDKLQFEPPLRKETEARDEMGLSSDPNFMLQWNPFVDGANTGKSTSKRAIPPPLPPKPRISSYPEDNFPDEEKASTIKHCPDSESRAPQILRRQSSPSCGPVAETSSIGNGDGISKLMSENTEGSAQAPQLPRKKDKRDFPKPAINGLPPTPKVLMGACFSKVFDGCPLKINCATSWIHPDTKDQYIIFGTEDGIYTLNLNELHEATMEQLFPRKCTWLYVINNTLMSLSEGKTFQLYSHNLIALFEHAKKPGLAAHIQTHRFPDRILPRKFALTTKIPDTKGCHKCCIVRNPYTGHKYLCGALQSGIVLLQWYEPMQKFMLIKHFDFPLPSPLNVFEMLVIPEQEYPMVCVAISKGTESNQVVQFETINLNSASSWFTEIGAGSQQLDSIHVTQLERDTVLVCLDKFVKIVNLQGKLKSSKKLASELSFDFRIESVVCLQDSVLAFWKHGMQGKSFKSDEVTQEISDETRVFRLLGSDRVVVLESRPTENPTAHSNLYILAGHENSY
Sequence of UniProt Q9HCP0 (whole entry, looked up): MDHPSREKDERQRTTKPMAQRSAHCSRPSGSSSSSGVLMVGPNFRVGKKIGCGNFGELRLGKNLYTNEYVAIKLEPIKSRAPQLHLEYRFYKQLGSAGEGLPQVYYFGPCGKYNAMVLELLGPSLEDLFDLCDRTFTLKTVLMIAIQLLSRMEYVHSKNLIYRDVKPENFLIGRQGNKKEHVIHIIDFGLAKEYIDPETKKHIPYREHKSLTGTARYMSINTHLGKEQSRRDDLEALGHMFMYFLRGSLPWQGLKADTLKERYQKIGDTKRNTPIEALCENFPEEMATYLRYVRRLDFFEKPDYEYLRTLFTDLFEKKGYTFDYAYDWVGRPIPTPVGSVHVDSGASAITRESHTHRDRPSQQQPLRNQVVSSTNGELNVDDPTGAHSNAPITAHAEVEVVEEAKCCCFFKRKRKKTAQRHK
Sequence of UniProt Q06187 (whole entry, looked up): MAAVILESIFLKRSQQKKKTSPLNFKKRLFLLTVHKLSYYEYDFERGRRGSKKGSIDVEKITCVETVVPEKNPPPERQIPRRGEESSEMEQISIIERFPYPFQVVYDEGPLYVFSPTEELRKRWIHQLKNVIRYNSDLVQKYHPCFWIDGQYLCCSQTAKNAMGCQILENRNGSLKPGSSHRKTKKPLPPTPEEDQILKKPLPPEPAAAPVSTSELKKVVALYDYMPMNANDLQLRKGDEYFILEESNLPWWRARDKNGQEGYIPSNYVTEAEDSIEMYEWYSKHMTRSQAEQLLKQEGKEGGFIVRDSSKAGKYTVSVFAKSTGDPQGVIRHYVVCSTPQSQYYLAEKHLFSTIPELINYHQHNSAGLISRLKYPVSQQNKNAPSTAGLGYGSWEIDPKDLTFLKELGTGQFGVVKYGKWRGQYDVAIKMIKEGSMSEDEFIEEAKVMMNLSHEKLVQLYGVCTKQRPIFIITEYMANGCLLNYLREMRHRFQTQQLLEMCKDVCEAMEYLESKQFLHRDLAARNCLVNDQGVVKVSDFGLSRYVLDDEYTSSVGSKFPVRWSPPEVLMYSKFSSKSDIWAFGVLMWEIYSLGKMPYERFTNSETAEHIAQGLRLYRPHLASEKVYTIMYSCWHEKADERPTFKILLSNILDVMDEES
Sequence of UniProt Q06418 (whole entry, looked up): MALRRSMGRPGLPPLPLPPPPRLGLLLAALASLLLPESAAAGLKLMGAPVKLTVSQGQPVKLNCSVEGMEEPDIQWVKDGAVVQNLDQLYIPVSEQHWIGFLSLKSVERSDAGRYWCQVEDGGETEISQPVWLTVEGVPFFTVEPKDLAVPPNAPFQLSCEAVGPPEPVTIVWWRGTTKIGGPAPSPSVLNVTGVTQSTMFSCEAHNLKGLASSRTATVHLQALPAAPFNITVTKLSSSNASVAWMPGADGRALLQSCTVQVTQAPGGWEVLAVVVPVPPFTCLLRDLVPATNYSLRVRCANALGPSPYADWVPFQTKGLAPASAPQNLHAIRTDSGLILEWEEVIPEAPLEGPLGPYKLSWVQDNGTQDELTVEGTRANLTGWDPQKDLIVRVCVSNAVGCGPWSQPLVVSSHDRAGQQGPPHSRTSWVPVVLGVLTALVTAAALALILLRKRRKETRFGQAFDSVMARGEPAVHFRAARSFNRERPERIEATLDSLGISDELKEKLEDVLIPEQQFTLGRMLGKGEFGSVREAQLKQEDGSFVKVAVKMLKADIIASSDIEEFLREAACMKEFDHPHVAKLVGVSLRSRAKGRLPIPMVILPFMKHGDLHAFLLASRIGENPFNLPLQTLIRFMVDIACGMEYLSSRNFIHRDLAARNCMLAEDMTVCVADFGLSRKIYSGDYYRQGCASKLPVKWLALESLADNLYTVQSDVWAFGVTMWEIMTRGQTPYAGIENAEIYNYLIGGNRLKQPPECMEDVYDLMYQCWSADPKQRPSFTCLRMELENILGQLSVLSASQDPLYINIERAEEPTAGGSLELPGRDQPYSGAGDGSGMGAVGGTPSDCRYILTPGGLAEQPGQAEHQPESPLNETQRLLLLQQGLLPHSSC
Sequence of UniProt Q05513 (whole entry, looked up): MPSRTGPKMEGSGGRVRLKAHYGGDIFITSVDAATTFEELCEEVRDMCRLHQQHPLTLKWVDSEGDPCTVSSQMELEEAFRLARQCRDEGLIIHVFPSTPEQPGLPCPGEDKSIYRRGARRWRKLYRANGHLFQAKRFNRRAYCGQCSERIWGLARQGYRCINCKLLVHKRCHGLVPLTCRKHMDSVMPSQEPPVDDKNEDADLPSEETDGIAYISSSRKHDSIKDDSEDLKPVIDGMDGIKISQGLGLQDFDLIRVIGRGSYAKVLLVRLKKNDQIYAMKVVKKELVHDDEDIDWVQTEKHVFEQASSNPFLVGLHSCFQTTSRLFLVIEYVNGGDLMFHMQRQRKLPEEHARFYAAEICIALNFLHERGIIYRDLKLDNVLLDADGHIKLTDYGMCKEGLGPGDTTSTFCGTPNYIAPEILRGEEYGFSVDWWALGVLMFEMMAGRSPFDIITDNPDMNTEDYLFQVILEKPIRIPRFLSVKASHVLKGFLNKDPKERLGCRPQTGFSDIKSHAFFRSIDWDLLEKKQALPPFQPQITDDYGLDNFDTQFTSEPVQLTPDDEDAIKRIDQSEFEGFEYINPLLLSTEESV

Series 1
Host: human
Medium: microsomes or S9
Tested at: 2 µM
Time: 0.5 h
Compound | remaining compound
O=C(N1CCCO1)N(c1ccccc1)c1ccccc1 | 64.2%
Cc1ccc(N2CCCS2(=O)=O)cc1NS(=O)(=O)CC12CCC(CC1=O)C2(C)C (centres unmarked) | 35.4%
c1ccc2c(c1)ccc1nnc(-c3c[nH]c4ccccc34)n12 | 67.7%
CCC[C@@H]1CN(c2ncnc3sccc23)C[C@H]1C(=O)O | 39.9%
c1ccc(-n2ncc3c(Nc4cccc5ccccc45)ncnc32)cc1 | 31.2%
CC1=C(C#N)C(c2ccc(C(C)C)cc2)C2=C(O)c3ccccc3C2=N1 (centres unmarked) | 3.97%
COc1ccccc1NC(=O)Cn1c(=O)c2ccccc2n2nnc(-c3ccccc3)c12 | 83.3%
CNC(=O)N1CCc2cc(S(=O)(=O)Nc3ccc(Cl)cc3)ccc21 | 52.5%
CCC(C(=O)Nc1ccc(C(=O)O)cc1NC(=O)C(CC)c1ccccc1)c1ccccc1 (centres unmarked) | > 99%
COC[C@@H]1[C@@H](NC(=O)c2c(OC)cc(=O)n3c2CCNCC3)[C@@H]2CCO[C@H]12 | > 99%

Series 2
Cell line: HaCaT
Tested at: 100 µM
Time: 60 h
SMILES | viability [%]
C[C@]12C=CC(=O)C=C1CC[C@@H]1[C@@H]2[C@@H](O)C[C@@]2(C)[C@H]1CC[C@]2(O)C(=O)COP(=O)(O)O | 144
CC(=O)O[C@H]1CC[C@@]2(C)C(=CC[C@@H]3[C@@H]2CC[C@]2(C)C(c4cccnc4)=CC[C@@H]32)C1 | 19.5
O=C(O)[C@H](O)[C@@H](O)[C@H](O)[C@H](O)CO | 126
O=C(O)c1cc(-c2ccccc2)nc2ccccc12 | 88.1
Cc1ccnc(NS(=O)(=O)c2ccc(N)cc2)n1 | 107
COc1c(N2CCNC(C)C2)c(F)cc2c(=O)c(C(=O)O)cn(C3CC3)c12 (centres unmarked) | 157

Series 3
SMILES: CC(C)CC(=O)N1CCc2nc(-c3ccc(Br)cc3)nc(N(C)Cc3ccccc3)c2C1
Observed: cell-free assay
Technique: competition with immobilised ligand
Tested at: 0.1 µM
target | remaining binding
TYRO3 (Homo sapiens, UniProt Q06418) | 100%
CSNK1G1 (Homo sapiens, UniProt Q9HCP0) | 100%
MAP4K5 (Homo sapiens, UniProt Q9Y4K4) | 93%
Tyrosine-protein kinase ABL1, phosphorylated (ABL1, Homo sapiens, UniProt P00519, F317L) | 100%
CDK9 (Homo sapiens, UniProt P50750) | 100%
BTK (Homo sapiens, UniProt Q06187) | 100%
PRKACB (Homo sapiens, UniProt P22694) | 82%

Series 4
SMILES: CCN1/C(=C/C(C)=O)Sc2ccc(OC)cc21
Observed: enzyme activity
Action: inhibitor
Tested at: 0.5 µM
Reference: control
target | remaining activity
RPS6KB2 (Homo sapiens, UniProt Q9UBS0) | 107%
EPHA2 (Homo sapiens, UniProt P29317) | 99.1%
PAK1 (Homo sapiens, UniProt Q13153) | 92.9%
Cyclin-dependent kinase 5, with p35 (CDK5, Homo sapiens, UniProt Q00535) | 91.1%
CLK2 (Homo sapiens, UniProt P49760) | 25.9%
PAK6 (Homo sapiens, UniProt Q9NQU5) | 95.6%
BRSK2 (Homo sapiens, UniProt Q8IWQ3) | 89.5%
FES (Homo sapiens, UniProt P07332) | 101%
PRKCZ (Homo sapiens, UniProt Q05513) | 98%
MUSK (Homo sapiens, UniProt O15146) | 28.4%
JAK1 (Homo sapiens, UniProt P23458) | 98.9%
SIK2 (Homo sapiens, UniProt Q9H0K1) | 116%
SRPK1 (Homo sapiens, UniProt Q96SB4) | 106%
FLT1 (Homo sapiens, UniProt P17948) | 88.4%
ACVRL1 (Homo sapiens, UniProt P37023) | 102%
EPHB3 (Homo sapiens, UniProt P54753) | 90.3%
JAK2 (Homo sapiens, UniProt O60674) | 97.1%

Mixed results
Compound | system | endpoint | value
CCOC(=O)[C@@H]1CSCC(=O)N[C@@H](CC)C(=O)N(C)[C@@H](C)C(=O)N[C@H](CC(C)C)C(=O)N2CCC[C@@H]2C(=O)N(CC(C)C)CC(=O)N[C@H](CC(C)C)C(=O)N(C)[C@H](C)C(=O)N[C@@H](CC(C)C)C(=O)N1C | hydrocarbon/water | logD | 1.61

A few entries again (series 4):
target | remaining activity
CLK2 (Homo sapiens, UniProt P49760) | 25.9%
PAK6 (Homo sapiens, UniProt Q9NQU5) | 95.6%
BRSK2 (Homo sapiens, UniProt Q8IWQ3) | 89.5%
FES (Homo sapiens, UniProt P07332) | 101%
